Measurements pooled from the literature.
Protocols differ between the studies behind these lines. ± marks the error that the study gave.
Medium: plasma

SMILES | assay | test system | setting | how to read | quantity | result
CNC(=O)c1cc2c(Oc3ccc(NC(=O)C4(C(=O)Nc5ccc(F)cc5)CC4)cc3)ccnc2cc1OC | LC-MS/MS | mouse, Hs746T xenograft | oral, 100 mg/kg single dose, 4 h |  | plasma concentration | 63 µM
Cc1cc(-c2cc(OC(=O)c3ccccc3)ccc2Cl)cc2nnc(Nc3ccc(OCCN4CCCC4)cc3)nc12 |  | C57BL/6 mouse | topical, 1% |  | plasma concentration at 24 h | not detected
O=C(Nc1ccc(C(F)(F)F)cc1)c1cc(Cl)cc2nc(C(F)(F)F)[nH]c12 |  | NOD/SCID mouse | oral, 1 mg/kg, 24 h | relative to: IC50 in TOPFlash and MTS | plasma concentration over IC50 | 3 fold
CC1(C)Oc2cc3oc(=O)ccc3cc2C[C@@H]1O |  | male CD-1 mouse | oral gavage, 80 mg/kg daily, 4 weeks |  | plasma Amy activity | 773 ± 38.3 U/L
CC(C)(O/N=C(\C(=O)N[C@H]1CN2CC(C(=O)NCCN3C(=O)c4cc(O)c(O)cc4C3=O)=C(C(=O)O)N2C1=O)c1nc(N)sc1Cl)C(=O)O |  | CD-1 mouse | subcutaneous, 50 mg/kg, 6 h |  | plasma concentration | 1430 ng/mL
COc1cccc2c1C(=O)c1c(O)c3c(c(O)c1C2=O)C[C@@](O)(C(C)=O)C[C@@H]3O[C@H]1C[C@H](N)[C@H](O)[C@H](C)O1 | measured: daunorubicin | BALB/c mouse | intravenous, 10 mg/kg, any time point | relative to: micellar daunorubicin | plasma concentration | < 10%
CCn1nc(C2CC2)cc1Nc1nc(C(=O)NCCCCCc2cccc3c2CN(C2CCC(=O)NC2=O)C3=O)nc2[nH]c3cc(-c4c(C)noc4C)c(OC)cc3c12 (centres unmarked) |  | female SCID C.B-17 mouse | intravenous, 5 mg/kg single, 6 h |  | plasma concentration | 5.5 ng/mL
O=C(OC(C(F)(F)F)C(F)(F)F)N1CCN(Cc2ccc(C(F)(F)F)cc2N2CCCC2)CC1 |  | wild-type mouse | oral in chow, 350 mg/kg chow, 3 days, P21 |  | plasma concentration | 170 ± 19 ng/mL

Excerpt of the above:
SMILES | assay | test system | setting | how to read | quantity | result
CC1(C)Oc2cc3oc(=O)ccc3cc2C[C@@H]1O |  | male CD-1 mouse | oral gavage, 80 mg/kg daily, 4 weeks |  | plasma Amy activity | 773 ± 38.3 U/L
